Results pooled from the literature.
Protocols differ between the studies behind these lines. ± marks the error that the study gave.
ache: Acetylcholinesterase (ache, Electrophorus electricus, UniProt O42275)

O=C(CN1CN(c2ccccc2)C2(CCN(C(=O)c3cnc4[nH]ncc4c3)CC2)C1=O)NCC(F)(F)F
inhibition (STK10 (Homo sapiens, UniProt O94804); inhibitor; concentration not given): < 50%

CN[C@@H]1[C@H](O)[C@H](NC)[C@H]2O[C@]3(O)[C@H](O[C@@H]2[C@H]1O)O[C@H](C)C[C@H]3NC(=O)Cc1ccc(Cl)cn1
inhibition (ADORA3 (Homo sapiens, UniProt P0DMS8); ligand displacement, radioligand; 10 µM): -1%

CC(C)[C@H]1NC(=O)C[C@H]2/C=C/CCSSC[C@@H](NC1=O)C(=O)N[C@H](Cc1cccc3ccccc13)C(=O)NCC(=O)O2
inhibition (FYN (Homo sapiens, UniProt P06241); enzyme activity, inhibitor; 10 µM): 4.8%

C/C(=N\OCCCN1CCCCC1)c1ccc(C(F)(F)F)cc1
inhibition (ADORA2A (Homo sapiens, UniProt P29274); antagonist, cAMP; 10 µM): 2.87%

CCc1nnc(-c2c(OC)cc(-c3cnc4cc(-c5cnn(C)c5)ccn34)cc2OC)o1
inhibition (CHRM1 (Homo sapiens, UniProt P11229); antagonist radioligand, radioligand binding; 10 µM, SafetyScreen44 M1): 4%

O=C1c2ccccc2CCCN1CCCCN1CCN(c2cccc(Cl)c2Cl)CC1
inhibition (HTR4 (Homo sapiens, UniProt Q13639); radioligand binding; concentration not given): 11.2%

O=S(=O)(F)CCc1cn(-c2ccc(OC(F)(F)F)cc2)nn1
inhibition (ache; 20 µM): 14.3 ± 2.9%

CN(C)[C@H]1C[C@@]23CC[C@@]4(O2)C(=CC[C@]2(C)[C@@H](c5ccc6ccncc6c5)CC[C@H]24)C=C3[C@@H](O)[C@@H]1O
inhibition (MAP4K3 (Homo sapiens, UniProt Q8IVH8); ATP probe labelling, inhibitor, KiNativ profiling; 0.1 µM): -5.3%

O=C(NC1CCN(c2ncnc3[nH]cnc23)CC1)c1cccc(NS(=O)(=O)c2ccc(C(F)(F)F)cc2)c1
inhibition (Genome polyprotein, NS5 methyltransferase domain (Zika virus, UniProt Q32ZE1); NS5 enzyme activity, inhibitor; 0.7812 µM): 1.47%

N[C@H](C(=O)N1CCCC1)C1CCN(c2nccc3c(-c4ncc(Cl)cc4Cl)cccc23)CC1
inhibition (MARK1 (Homo sapiens, UniProt Q9P0L2); kinase activity, inhibitor; 10 µM, added: ATP 1 mM): 6.8%

C1CSCN1
inhibition (ache; enzyme activity, inhibitor, Ellman; 20 µM): 37.7%

CC(=O)NC[C@@H]1[C@@H](O)C[C@H]2[C@H](O)C[C@@H](CO)N12
inhibition (human placental β-N-acetylglucosaminidase; 0.171 µM, run 2, added: p-nitrophenyl GlcNAc): 70.4%

CS(C)(=O)=Nc1ccc(-c2ccc(-c3nc4cc(O[C@@H]5CO[C@H]6[C@@H]5OC[C@H]6O)[nH]c4cc3F)cc2)cc1
inhibition (RIPK2 (Homo sapiens, UniProt O43353); enzyme activity, inhibitor; 10 µM): 25%

For quick reference, copied from above:
CN[C@@H]1[C@H](O)[C@H](NC)[C@H]2O[C@]3(O)[C@H](O[C@@H]2[C@H]1O)O[C@H](C)C[C@H]3NC(=O)Cc1ccc(Cl)cn1
inhibition (ADORA3 (Homo sapiens, UniProt P0DMS8); ligand displacement, radioligand; 10 µM): -1%
